Assay results collected from several papers.
Each numbered part is a random draw from the data of one study; scales do not carry over between parts. Positions count from the first letter of the parent shown.

Series 1 — method: RNA Bind-n-Seq; molecule type: RNA; medium: in vitro; concentration: 200 nM; setting: whole 134-nt RNA, ends assumed; added: 150 mM LiCl; relative to: input library; reading: higher = stronger binding; all molecules: 7-deaza-guanosine replaces G
Target: Ras GTPase-activating protein-binding protein 1, full length (G3BP1, Homo sapiens, UniProt Q13283)
UniProt Q13283, sequence (whole entry, looked up): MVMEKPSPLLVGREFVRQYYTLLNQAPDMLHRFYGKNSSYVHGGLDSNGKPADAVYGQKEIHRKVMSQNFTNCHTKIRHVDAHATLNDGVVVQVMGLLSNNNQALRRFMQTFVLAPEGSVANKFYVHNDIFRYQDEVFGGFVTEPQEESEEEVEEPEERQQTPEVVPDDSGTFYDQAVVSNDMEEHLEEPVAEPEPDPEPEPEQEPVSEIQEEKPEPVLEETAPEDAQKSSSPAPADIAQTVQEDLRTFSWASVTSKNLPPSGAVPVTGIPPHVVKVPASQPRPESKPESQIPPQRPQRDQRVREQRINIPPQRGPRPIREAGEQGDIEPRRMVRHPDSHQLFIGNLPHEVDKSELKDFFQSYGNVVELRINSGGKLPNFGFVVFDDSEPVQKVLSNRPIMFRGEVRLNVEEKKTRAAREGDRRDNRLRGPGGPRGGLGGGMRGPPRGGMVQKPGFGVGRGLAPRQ
Oligonucleotide | log2 enrichment
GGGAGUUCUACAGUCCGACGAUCCUGUGCUACACAUCGUAUGUACCGAAUCGGGCCCCCCCGGGGCCCCCCCGGGGCCCCCCCGGAAAGUAUUAUGUUACGCCGUUCGGAUCUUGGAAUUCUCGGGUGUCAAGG | 0.0784
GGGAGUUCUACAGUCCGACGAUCGCAGGAAGUAAAAACAAAUGGAAAAAAUUCGGAUAGUGGCAGGGGUGGGGGUUGCUAAGGAAAGGGUGGGAUGGGAGUGGGUAAAGAGUUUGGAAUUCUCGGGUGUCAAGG | -0.382
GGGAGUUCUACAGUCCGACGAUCGUCCUGUGCUACACAUCGUAUGUACCGAAUCAAACCCAAACCCCCCCAAACCCCCAAAAAAGUAUUAUGUUACGCCGUUCGGAUCUGCACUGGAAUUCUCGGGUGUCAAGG | -0.00505
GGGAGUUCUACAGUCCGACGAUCUAACUUUAGAGGAGGAUCUGAUGGAUAUGGCAGUGGACGUGGAUUUGGGGAUGGCUAUAAUGGGUAUGGAGGAGGACCUGGAGGUGGCGAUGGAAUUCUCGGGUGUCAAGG | -0.0665
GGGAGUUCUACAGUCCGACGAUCUAUCUUAUCUACACAUGGGGGACUGAAGAGUUCGAGAGAUCCAAGAGGAAGAAUCCAGCUGCCUAUGAAAAUGACAAAUGAGCAACGCAUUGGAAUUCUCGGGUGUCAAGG | -0.77
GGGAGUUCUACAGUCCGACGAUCAGUCCUGUGCUACACAUCGUAUGUACCGAAUCGGGUUUUGGGUUUUGGGGUUUUGGGAAAGUAUUAUGUUACGCCGUUCGGAUCUGCACUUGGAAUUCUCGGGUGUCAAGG | -0.515
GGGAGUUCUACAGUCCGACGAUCUGUGCUACACAUCGUAUGUACCGAAUCGGGGUUUUUUUGGGGUUUUUGGGGUUUUUUUGGGGAAAGUAUUAUGUUACGCCGUUCGGAUCUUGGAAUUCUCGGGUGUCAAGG | 1.74
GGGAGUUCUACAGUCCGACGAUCUCCUGUGCUACACAUCGUAUGUACCGAAUCGGGGAAAAAAGGGGAAAAAAGGAAAAAAGGAAAGUAUUAUGUUACGCCGUUCGGAUCUGCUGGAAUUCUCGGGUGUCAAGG | -0.0602

Series 2 — target: ATF2, bZIP domain (human); method: DHFR protein complementation; medium: yeast; relative to: wild-type JUN-FOS pair; reading: higher = stronger binding
Setting: single substitutions, most at no-binding floor
Parent: JUN, bZIP domain (human); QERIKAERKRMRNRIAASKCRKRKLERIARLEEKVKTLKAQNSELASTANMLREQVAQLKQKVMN; partner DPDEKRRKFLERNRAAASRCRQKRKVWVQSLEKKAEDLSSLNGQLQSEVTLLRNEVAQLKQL
Change | binding fitness [natural log]
K34A | -1.44
L38Q | -1.49
Q55P | -1.53
N42M | -1.49
R53N | -1.53
E44R | -1.45
T48I | -1.37
E32P | -1.51
A29Q | -1.22
E44D | -1.14

Series 3 — target: CCNE2, cyclin fold, Cln2 fusion (human); method: yeast growth competition, sequencing; medium: yeast; setting: weak parent motif; relative to: not given; reading: higher = stronger binding
Parent: ITGB3BP docking peptide (human); MPVKRSLKLDGLL; partner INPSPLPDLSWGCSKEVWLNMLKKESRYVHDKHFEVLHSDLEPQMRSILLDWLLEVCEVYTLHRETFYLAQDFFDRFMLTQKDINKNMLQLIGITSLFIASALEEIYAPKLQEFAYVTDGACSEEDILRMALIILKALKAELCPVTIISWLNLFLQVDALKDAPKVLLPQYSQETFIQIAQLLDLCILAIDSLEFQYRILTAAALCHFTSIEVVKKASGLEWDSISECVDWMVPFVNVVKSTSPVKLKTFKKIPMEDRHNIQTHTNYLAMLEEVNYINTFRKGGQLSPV
Change | normalised enrichment score
APVKRSLKLDGLL [M1A] | -0.0603
MPVKRSLKLDALL [G11A] | 1.23
MPVKRSLKADGLL [L9A] | 0.35
MPVKRSLALDGLL [K8A] | 1.08
MPVKKSLKFDGLL [R5K L9F] | 0.598
MPVKRSLKLAGLL [D10A] | 1.25
MPVKRSLKLDGAL [L12A] | 0.358

Series 4 — method: DHFR PCA, deep sequencing; medium: yeast; added: (+)-ABA 17 µM; relative to: wild-type fitted maximum; reading: higher = stronger binding
Target: ABI1, truncated, D143A, DHFR fusion (Arabidopsis thaliana)
Setting: methotrexate growth selection, single substitutions
Parent: PYL1, truncated, DHFR fusion (Arabidopsis thaliana); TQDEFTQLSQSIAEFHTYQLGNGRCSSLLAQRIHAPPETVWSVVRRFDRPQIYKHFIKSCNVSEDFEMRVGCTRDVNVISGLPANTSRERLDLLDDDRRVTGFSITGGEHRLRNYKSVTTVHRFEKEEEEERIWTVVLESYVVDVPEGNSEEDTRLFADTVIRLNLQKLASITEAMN; partner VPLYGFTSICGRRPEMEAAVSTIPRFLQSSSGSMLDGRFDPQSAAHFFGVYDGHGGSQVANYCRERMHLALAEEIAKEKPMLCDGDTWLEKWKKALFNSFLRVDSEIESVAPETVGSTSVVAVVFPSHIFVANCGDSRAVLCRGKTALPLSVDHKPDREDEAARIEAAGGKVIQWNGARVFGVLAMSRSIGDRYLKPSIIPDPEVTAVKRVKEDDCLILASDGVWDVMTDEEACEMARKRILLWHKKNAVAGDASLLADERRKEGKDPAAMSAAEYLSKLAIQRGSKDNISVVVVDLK
Change | relative binding score
E67D | 79.7%
V78C | 74.6%
S59A | 79.7%
R69Y | 56.7%
E4H | 72%
T173P | 2.78%
P50N | 5.5%
E152C | 70.5%
H110W | 37.8%
G102K | 27.9%
T119G | -10.4%
W41V | -1.2%
R155H | 24%
R24G | 36.8%
R155C | 70.3%
G81D | 3.41%
T173F | 50.6%

Series 5 — method: RNA Bind-n-Seq; molecule type: RNA; medium: in vitro; concentration: 20 nM; setting: 6-mer, flanks averaged, single round; added: 150 mM LiCl; relative to: input library; reading: higher = stronger binding
Target: TAR DNA-binding protein 43, full length, His tag (TARDBP, Homo sapiens, UniProt Q13148, residues 1-414)
Oligonucleotide | 6-mer enrichment (R)
CCGGUC | 0.884
UCCAAC | 0.817
GAAUCC | 0.836
AUUGGG | 1.15
CCAUCC | 0.923
CUAUAA | 0.943
GGCGCC | 1.02
CUGGGA | 0.972
UAGUCA | 0.846
UACCAC | 0.893
CUCCGG | 0.885
GGAACA | 0.888
CUCCAG | 0.919
AUUUAC | 0.973
ACCGGC | 0.882
CUCGGU | 0.884
GGACUC | 0.974
GAUACU | 0.834
GCACUA | 0.869
AUACCC | 0.966
GACACA | 0.923
AAAGGU | 0.93
CGAGCA | 0.875
UGCGCA | 1.03
AUUUAG | 1
